Measured values gathered from unrelated publications.
Numbered parts are unrelated; each lists some results of a single study. Positions count from the first letter of the parent shown.

Block 1
Target: CCNB1, cyclin fold, Cln2 fusion (human)
Method: yeast growth competition, sequencing
Matrix: yeast
Setting: weak parent motif
Baseline: not given
Reading: higher = stronger binding
Measurement: normalised enrichment score
Starting sequence: CDC25A docking peptide (human); PPHRRRLLFACSP
PPHRQRLLFACSP [R5Q]: 0.865
PPHRRRLLGACSP [F9G]: 1.77
PPHRRRWLFACSP [L7W]: 0.372
PPHRRRLLFACSF [P13F]: 0.449
NPHRRRLLFACSP [P1N]: 0.674
PFHRRRLLFACSP [P2F]: 0.349

Block 2
Target: Histone acetyltransferase KAT6A, winged helix 2, GST fusion (KAT6A, Homo sapiens, UniProt Q92794, residues 85-181)
Method: protein binding microarray
Molecule type: double-stranded DNA, one strand shown
Matrix: in vitro
Concentration: not given
Setting: 8-mer, flanks averaged, mean of 2 arrays, mostly near background
Baseline: not given
Reading: higher = stronger binding
Measurement: E-score
Target sequence (chain): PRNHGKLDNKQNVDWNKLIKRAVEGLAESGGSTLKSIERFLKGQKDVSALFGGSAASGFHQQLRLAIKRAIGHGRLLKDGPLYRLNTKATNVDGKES
TAACGCCA: -0.0423
ACTGGTTA: -0.191
AGGTTATG: -0.116
GCAGTTGA: -0.0513
CCTTATTA: -0.18
AATTACTG: -0.134

Block 3
Target: RNA binding protein fox-1 homolog 2, RRM domain, GST-SBP tag (RBFOX2, Homo sapiens, UniProt O43251-10, residues 100-194)
Method: RNA Bind-n-Seq
Molecule type: RNA
Matrix: in vitro
Concentration: 365 nM
Setting: natural RNA segment, single round, ends assumed
Baseline: no-protein control
Reading: higher = stronger binding
Measurement: RBNS enrichment (R)
All sequences stand within: GGGAGUUCUACAGUCCGACGAUC … UGGAAUUCUCGGGUGCCAA
Target sequence (chain): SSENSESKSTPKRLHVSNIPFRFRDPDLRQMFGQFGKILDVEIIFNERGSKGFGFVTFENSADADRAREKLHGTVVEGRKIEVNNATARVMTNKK
GAGGUACAUUAGAGCAUGGAGGACACCUCCACAUCUUUUGAAAUCCAGGCAAGGAGACCAAAACUUUCGCUCUGUUCACUUGUGCCUCACUUUGGAAGCUUAACUUCCCA: 0.206
CUGACACGUCCUCUCUGGCCGCCAUCCGGCUCGCACAGGGGCCUCCCAGCGCCUCAGGCCCCGCGUUUGUGUCUGGAGUCUCCCCCCGGGGAGAGGACACUGGCCCCUCG: 0.36
CCUGAAGACCCACUGAGGAAUUCCGUAGGGUCUUGUUCCCACGACCGGAGUGCUGGCUCUCACAGUGAAUUUUGAUGCAUUUAAAAUAAGAUUCUGAUGCCAGACUGUUA: 2.12
GUAGCAGUUGUCAUAGACUAAUCAUAAAAUAUUUUGCACAAAAUUUCAAUGUUGAACUUGCACUUACUGUUGUUAUAGUAAAUUAUAAAUCACAGCUUCUAGCUAGGCCA: 0.393
UUAUAAUUGCCAGAGCAGUAUUUUUUAUAUUGUAAACAGCGUGCGCAGCUCAGUGUGUGUCAGUGAUAAGAGUGUGGGAAGGCUUCAUCCUCUGCAGAGGCUGCUGAAGA: 0.244
AGCUUCAUUUUUCUUUUAUCCUGUCUGUCCUAAUAAAAACAAAAAUGGCCAAAAAGUGGAGAGGAAAGAAAAAGCUUCCACUUUUUAAAAUUUGUUUUGUAUUAGUUAUU: 0.87
GUGUCAGGGGCAGAGAGUGAUGGGCACGAUUUAACAGGGAAAGAAAUGGGGCCAACAGUUCUUCCUGUUCGGUGCAGCGGGUGCUAGUAGGAUGCCCUAGUCCUUGAUGG: 1.01

Single results of other studies
PhoQ, residues 284 288 289 292 302 303 SACGEM  fold induction (PhoP, residues 12 14 15 18 19 AWHSL (Escherichia coli, UniProt P23836); Sort-seq, item: YFP reporter; E. coli; PhoQ-PhoP variant library, with: 10 µM Mg2+; baseline: high Mg2+ state, higher = stronger signaling): 4.18

Some of these lines once more (single results of other studies):
PhoQ, residues 284 288 289 292 302 303 SACGEM  fold induction (PhoP, residues 12 14 15 18 19 AWHSL (Escherichia coli, UniProt P23836); Sort-seq, item: YFP reporter; E. coli; PhoQ-PhoP variant library, with: 10 µM Mg2+; baseline: high Mg2+ state, higher = stronger signaling): 4.18
